Measurements collected from several papers.
Lines come from different studies, so protocols differ. Values joined by “and” are separate records of one study, mostly repeats; a detail may differ. Numbers after ± are the reported error.

For `NC12CC3CC(CC(C3)C1)C2`, the EC50 was over 100 µM (Influenza A virus; viral replication, plaque size reduction; MDCK, A/Swine/Illinois/21-1230/2009 (H1N1pdm09)).
`N=C(N)NCCNC(=O)C1(Nc2ccccc2)CCN(Cc2ccccc2)CC1`: tail-withdrawal latency “no effect” (warm-water tail withdrawal; mouse; intracerebroventricular, 30 nmol).
`AEOL 10150` — result for KC/GRO level: “no effect” (multiplex immunoassay; rat, status epilepticus, piriform cortex; sc, 7 mg/kg every 4 h, 24 h, from 5 min post-SE).
`cisplatin` has an EC100 of 125 µM (survival; zebrafish larvae 6 dpf; 4 h, DMSO solution, together with: KCN 100 µM).
For `C=CCN1CC[C@]23c4c5ccc(O)c4O[C@H]2C(=O)CC[C@@]3(O)[C@H]1C5`, “time to minute volume rise” read at most 10 min (respiration, whole-body plethysmography; Swiss Webster mouse; subcutaneous, 3 mg/kg, together with: fentanyl 0.15 mg/kg subcutaneous).
The survival time of `C=CCN1CC[C@]23c4c5ccc(O)c4O[C@H]2C(=O)CC[C@@]3(O)[C@H]1C5` is reported as 12 h and 48 h and 15 h (rat, fentanyl overdose model; s.c., 0.2 mg/kg, 10.5 (unit not given), repeated doses as rescue).
The Kd of `Pillar[6]MaxQ` is reported as 25.5 nM (host-guest binding, isothermal titration calorimetry; 20 mM sodium phosphate buffer; pH 7.4, together with: MDMA).
`O=C(N[C@H]1CC[C@@]2(O)[C@H]3Cc4ccc(O)c5c4[C@@]2(CCN3CC2CC2)[C@H]1O5)c1cccc2cc[nH]c12`: “maximum fentanyl-appropriate responding” 1.7 ± 1.5% (drug discrimination substitution; rat; subcutaneous, 32 mg/kg, 30 min pretreatment, trained fentanyl 0.04 mg/kg vs saline).
`NC(=O)c1cc[n+](COC[n+]2ccccc2/C=N/O)cc1.[Cl-].[Cl-]` has a protective ratio of 2.63 fold NIMP LD50 (reactivator, up-and-down method; mice; baseline: NIMP LD50 untreated).
`CN1CC[C@]23c4c5ccc(O)c4O[C@H]2[C@@H](O)C=C[C@H]3[C@H]1C5` gave an ED50 of 12.4 mg/kg (body temperature decrease; C57BL/6J male mice; subcutaneous).
`CCC1C(=O)N(C2CCN([C@H]3CC[C@@H]4CCCc5cccc3c54)CC2)c2ccccc21` (relative stereo): antinociception “inhibited” (tail-flick test; mouse; subcutaneous, 3 mg/kg, together with: naloxone 1 mg/kg pretreatment 10 min).
The IC50 of `CC1(C)C(C(Cl)Cl)C2(Cl)C(Cl)C(Cl)C1(Cl)C2(Cl)Cl` (stereo not drawn) is reported as over 1000 ng/mL (indirect competitive ELISA; rabbit antiserum; cross-reactivity).

Repeated from above:
The survival time of `C=CCN1CC[C@]23c4c5ccc(O)c4O[C@H]2C(=O)CC[C@@]3(O)[C@H]1C5` is reported as 12 h and 48 h and 15 h (rat, fentanyl overdose model; s.c., 0.2 mg/kg, 10.5 (unit not given), repeated doses as rescue).
